Results collected from several papers.
Several values in a cell are separate wells, animals, samples, runs or records. ± marks the error that the study gave.
NOD2 R877A LRR domain: Nucleotide-binding oligomerization domain-containing protein 2, LRR domain (NOD2, Homo sapiens, UniProt Q9HC29, R877A)
UniProt Q9HC29, sequence (whole entry, unmodified, looked up): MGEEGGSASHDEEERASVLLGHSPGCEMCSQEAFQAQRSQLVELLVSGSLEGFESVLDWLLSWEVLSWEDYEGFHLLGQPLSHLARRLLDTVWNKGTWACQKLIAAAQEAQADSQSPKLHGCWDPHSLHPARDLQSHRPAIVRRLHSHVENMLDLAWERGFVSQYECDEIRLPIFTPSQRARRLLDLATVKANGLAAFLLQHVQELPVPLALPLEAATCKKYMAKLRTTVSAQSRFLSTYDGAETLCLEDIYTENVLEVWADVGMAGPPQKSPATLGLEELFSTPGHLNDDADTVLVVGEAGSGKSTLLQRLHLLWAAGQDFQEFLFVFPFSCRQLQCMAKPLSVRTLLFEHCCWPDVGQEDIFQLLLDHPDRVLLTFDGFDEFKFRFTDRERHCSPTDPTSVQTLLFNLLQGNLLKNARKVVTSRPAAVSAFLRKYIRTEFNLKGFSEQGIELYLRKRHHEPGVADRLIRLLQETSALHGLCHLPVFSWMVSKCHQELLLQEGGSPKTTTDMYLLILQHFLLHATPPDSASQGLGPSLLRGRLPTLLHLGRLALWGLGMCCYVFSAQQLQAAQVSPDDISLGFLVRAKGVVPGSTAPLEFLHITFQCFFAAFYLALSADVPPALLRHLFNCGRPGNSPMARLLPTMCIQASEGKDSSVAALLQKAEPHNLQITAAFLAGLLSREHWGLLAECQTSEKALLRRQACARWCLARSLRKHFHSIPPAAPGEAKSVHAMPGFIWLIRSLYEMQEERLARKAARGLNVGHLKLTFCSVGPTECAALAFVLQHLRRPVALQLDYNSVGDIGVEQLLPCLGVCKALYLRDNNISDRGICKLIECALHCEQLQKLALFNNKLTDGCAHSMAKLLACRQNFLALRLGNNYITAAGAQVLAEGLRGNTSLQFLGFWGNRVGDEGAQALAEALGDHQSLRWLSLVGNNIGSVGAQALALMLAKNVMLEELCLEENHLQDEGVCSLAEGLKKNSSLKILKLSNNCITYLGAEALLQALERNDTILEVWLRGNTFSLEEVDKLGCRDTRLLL
USP51 ZnF-UBD domain: Ubiquitin carboxyl-terminal hydrolase 51, ZnF-UBD domain (USP51, Homo sapiens, UniProt Q70EK9)
UniProt Q70EK9, sequence (whole entry, looked up): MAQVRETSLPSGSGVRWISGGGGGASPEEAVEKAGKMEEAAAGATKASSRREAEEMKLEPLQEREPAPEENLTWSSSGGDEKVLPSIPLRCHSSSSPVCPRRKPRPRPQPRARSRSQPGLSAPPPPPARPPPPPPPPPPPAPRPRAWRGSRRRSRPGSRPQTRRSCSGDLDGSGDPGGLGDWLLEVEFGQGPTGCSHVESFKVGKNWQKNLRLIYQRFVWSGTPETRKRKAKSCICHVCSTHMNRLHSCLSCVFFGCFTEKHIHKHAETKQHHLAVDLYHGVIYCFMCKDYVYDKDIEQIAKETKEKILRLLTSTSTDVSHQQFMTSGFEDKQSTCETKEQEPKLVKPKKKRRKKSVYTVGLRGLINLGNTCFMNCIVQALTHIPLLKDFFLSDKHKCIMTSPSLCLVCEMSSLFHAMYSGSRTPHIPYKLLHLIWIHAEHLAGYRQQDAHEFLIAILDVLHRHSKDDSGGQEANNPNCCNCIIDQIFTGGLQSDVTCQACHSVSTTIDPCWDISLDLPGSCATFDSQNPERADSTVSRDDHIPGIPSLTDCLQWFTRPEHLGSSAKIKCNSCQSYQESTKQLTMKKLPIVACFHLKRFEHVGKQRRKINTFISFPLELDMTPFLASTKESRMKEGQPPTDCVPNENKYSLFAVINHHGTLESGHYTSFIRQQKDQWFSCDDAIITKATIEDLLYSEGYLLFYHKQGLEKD
Maoa: Amine oxidase [flavin-containing] A (Maoa, Rattus norvegicus, UniProt P21396)
UniProt P21396, sequence (whole entry, looked up): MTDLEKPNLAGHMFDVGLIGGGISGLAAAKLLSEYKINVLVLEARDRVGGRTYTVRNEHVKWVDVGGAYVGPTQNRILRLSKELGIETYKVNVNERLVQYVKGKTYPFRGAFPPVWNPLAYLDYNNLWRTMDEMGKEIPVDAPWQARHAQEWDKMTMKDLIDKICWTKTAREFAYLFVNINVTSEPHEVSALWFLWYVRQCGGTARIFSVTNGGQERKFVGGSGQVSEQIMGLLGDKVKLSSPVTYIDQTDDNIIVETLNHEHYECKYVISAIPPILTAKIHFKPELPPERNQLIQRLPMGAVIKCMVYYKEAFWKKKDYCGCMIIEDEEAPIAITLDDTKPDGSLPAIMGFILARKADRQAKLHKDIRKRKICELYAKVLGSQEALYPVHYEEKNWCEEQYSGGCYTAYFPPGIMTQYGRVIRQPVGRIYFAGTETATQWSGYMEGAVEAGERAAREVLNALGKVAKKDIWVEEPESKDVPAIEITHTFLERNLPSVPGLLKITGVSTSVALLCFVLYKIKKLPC
uncharacterized protein: uncharacterized protein (Pelagibacter ubique, UniProt Q4FKZ8)
GAP50: Glideosome-associated protein 50 (GAP50, Plasmodium falciparum, UniProt Q8I2X3)
UniProt Q8I2X3, sequence (whole entry, looked up): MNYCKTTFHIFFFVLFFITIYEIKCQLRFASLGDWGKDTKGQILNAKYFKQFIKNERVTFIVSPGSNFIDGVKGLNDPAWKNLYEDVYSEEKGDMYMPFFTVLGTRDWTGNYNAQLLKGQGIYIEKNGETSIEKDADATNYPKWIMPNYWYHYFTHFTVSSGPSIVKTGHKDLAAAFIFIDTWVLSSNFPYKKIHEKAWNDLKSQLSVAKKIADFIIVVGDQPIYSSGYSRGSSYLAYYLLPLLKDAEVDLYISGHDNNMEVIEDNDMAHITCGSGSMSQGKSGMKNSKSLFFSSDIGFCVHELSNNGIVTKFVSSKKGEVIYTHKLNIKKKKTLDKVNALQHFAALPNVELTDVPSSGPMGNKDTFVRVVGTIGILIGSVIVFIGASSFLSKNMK
HDAC10: Polyamine deacetylase HDAC10 (HDAC10, Homo sapiens, UniProt Q969S8)
UniProt Q969S8, sequence (whole entry, looked up): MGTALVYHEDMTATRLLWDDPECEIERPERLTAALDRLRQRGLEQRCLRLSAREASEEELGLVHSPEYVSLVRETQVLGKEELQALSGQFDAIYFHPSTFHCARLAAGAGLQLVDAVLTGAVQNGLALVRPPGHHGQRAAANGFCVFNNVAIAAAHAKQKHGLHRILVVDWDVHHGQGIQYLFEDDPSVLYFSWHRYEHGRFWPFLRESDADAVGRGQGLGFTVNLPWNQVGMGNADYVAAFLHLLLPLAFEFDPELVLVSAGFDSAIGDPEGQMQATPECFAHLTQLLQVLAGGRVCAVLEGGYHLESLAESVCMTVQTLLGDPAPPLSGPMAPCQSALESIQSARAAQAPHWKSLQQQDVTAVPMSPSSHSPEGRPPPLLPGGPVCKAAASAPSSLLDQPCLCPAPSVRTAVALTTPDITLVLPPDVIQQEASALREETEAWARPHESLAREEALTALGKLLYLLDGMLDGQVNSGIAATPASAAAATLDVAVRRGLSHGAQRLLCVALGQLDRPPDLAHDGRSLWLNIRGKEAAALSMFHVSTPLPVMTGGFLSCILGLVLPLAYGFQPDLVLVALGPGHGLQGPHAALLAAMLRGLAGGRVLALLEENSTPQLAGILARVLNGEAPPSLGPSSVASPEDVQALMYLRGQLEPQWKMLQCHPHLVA
UniProt P80188, sequence (whole entry, unmodified, looked up): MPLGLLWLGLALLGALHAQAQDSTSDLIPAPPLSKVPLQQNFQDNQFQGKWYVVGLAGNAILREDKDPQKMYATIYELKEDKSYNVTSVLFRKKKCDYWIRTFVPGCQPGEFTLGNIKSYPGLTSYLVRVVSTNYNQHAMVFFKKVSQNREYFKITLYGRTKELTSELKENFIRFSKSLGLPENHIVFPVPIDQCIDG
UniProt P11142, sequence (whole entry, looked up): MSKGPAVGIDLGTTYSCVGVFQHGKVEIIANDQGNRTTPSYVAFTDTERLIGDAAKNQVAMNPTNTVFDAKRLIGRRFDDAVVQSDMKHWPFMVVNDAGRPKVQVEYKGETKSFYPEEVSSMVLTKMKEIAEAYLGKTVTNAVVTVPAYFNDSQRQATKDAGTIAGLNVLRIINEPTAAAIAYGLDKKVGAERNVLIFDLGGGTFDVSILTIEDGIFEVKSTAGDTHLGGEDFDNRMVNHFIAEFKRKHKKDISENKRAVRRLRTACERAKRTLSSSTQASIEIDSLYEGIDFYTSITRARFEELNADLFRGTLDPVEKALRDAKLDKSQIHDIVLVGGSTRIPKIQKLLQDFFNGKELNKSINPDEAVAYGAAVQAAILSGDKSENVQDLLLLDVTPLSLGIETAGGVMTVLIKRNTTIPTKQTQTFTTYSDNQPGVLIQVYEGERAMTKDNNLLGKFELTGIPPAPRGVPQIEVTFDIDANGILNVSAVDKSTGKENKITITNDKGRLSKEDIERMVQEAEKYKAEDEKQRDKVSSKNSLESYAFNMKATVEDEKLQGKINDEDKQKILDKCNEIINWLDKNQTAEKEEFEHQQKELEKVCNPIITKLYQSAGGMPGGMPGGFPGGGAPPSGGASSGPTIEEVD
UniProt P12689, sequence (1-746, looked up): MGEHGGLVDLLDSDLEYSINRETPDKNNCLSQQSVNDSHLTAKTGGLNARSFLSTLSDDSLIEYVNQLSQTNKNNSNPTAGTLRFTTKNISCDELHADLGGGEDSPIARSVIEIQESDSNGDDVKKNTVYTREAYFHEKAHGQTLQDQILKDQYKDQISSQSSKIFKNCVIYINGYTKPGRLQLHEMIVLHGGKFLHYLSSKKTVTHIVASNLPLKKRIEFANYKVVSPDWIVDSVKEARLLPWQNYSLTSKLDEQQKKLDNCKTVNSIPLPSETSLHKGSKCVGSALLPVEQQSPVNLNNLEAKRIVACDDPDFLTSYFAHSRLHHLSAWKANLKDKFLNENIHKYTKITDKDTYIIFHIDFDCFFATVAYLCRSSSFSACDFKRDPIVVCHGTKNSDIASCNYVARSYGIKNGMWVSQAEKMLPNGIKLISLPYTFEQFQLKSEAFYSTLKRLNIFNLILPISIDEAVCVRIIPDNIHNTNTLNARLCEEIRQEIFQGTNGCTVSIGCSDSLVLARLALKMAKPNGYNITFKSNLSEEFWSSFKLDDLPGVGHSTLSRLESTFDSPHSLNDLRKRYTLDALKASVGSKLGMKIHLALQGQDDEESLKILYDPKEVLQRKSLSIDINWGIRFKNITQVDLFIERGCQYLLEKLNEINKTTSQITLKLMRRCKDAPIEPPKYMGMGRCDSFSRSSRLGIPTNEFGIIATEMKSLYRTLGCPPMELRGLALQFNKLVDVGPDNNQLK

| SMILES | target | test | test system | setting | Kd |
| --- | --- | --- | --- | --- | --- |
| CO[C@H]1/C=C\C=C(/C)C(=O)NC2=CC(=O)C(NCCCCCCNC(=S)Nc3ccc(-c4c5ccc(=O)cc-5oc5cc(O)ccc45)c(C(=O)O)c3)=C(C[C@@H](C)C[C@H](OC)[C@H](O)[C@@H](C)/C=C(\C)[C@@H]1OC(N)=O)C2=O | HSP90AA1 (Homo sapiens, UniProt P07900) | binding, fluorescence polarization |  | added: geldanamycin-FITC probe | 0.0009 µM |
| CC(=O)NC1C(O)OC(CN)C(O)[C@@H]1O[C@H](C)C(=O)N[C@@H](C)C(=O)N[C@H](CCC(=O)O)C(N)=O (stereo partly shown) | NOD2 R877A LRR domain | surface plasmon resonance |  | LRR mutant R877A | 0.827 ± 0.113 µM |
| N#CC(=Cc1cnc[nH]1)C(N)=O | 2-mercaptoethanol | thiol adduct formation, UV-visible titration | PBS | pH 7.4 | 32800 ± 570 µM |
| O=C(O)CCC1=Nc2cccc3cccc(c23)N1 | USP51 ZnF-UBD domain |  |  |  | > 1000 µM |
| Cc1cc2nc3c(=O)[nH]c(=O)nc-3n(C[C@H](O)[C@H](O)[C@H](O)COP(=O)(O)OP(=O)(O)OC[C@H]3O[C@@H](n4cnc5c(N)ncnc54)[C@H](O)[C@@H]3O)c2cc1C | Gametocyte-specific factor 1 (GTSF1, Homo sapiens, UniProt Q8WW33) | binding, MS pulldown competition | SW-620 cell lysate |  | 1.88 µM |
| CN(C)c1ccc2c(-c3cc(C(=O)NCCOCCOCCCCCCCl)ccc3C(=O)[O-])c3ccc(=[N+](C)C)cc-3oc2c1 | linB (Sphingobium indicum, UniProt D4Z2G1, H272F) |  |  |  | 2.34 ± 0.8 µM |
| O=C(O)CCn1nnc(-c2ccccc2)n1 | USP51 ZnF-UBD domain |  |  |  | > 1000 µM |
| CCCCCCCC(=O)OC[C@H](COP(=O)(O)O[C@@H]1[C@H](O)[C@H](O)[C@@H](OP(=O)(O)O)[C@H](OP(=O)(O)O)[C@H]1O)OC(=O)CCCCCCC | KCNQ2/KCNQ3(EEE) mutant channel | channel open probability, activator, fitted binding model |  | model 4, site K2 | 96 µM and 96.1 µM |
| CCCN1CCN(c2cccc(-c3cnccc3N3CCCC4(CCNC4=O)C3)c2)CC1 (stereo not shown) | PARP16 (Homo sapiens, UniProt Q8N5Y8) | SILAC displacement | LS174T-L5 cell lysate |  | 23.8 µM |
| O=c1ccn([C@@H]2O[C@H](COP(=O)(O)OP(=O)(O)O)[C@@H](O)[C@H]2O)c(=O)[nH]1 | ABO (Homo sapiens, UniProt P16442, G268A/L266G) | methyl-TROSY NMR titration |  | apo enzyme | 37 ± 1 µM |
| Cc1cn([C@H]2C[C@H](O)[C@@H](COP(=O)(O)OP(=O)(O)OP(=O)(O)O)O2)c(=O)[nH]c1=O | DNA repair protein REV1, residues 1-746 (REV1, Saccharomyces cerevisiae, UniProt P12689) | substrate, rapid chemical quench |  | pH 7.5, 30 °C, added: primer-template DNA | 700 ± 100 µM |
| NCc1ccc(Br)cc1 | Maoa | steady-state isotope effects |  | pH 7.5 | 30 µM |
| NCC(=O)O | uncharacterized protein | isothermal titration calorimetry | Candidatus Pelagibacter ubique |  | 5.5 µM and 5.41 µM |
| CC(C)C[C@@H]1NC(=O)[C@H](C(C)C)NC(=O)CNC(=O)[C@H](CC(N)=O)NC(=O)[C@@H]2CCCN2C(=O)[C@H](Cc2ccc(O)cc2)NC(=O)[C@H](CCCNC(=N)N)NC(=O)[C@H](Cc2ccccc2)NC(=O)[C@@H](NC(=O)[C@H](CCCCN)NC(=O)[C@H](C)NC(=O)[C@H](CO)NC(=O)[C@H](C)NC(=O)[C@@H](N)Cc2ccc(O)cc2)CSSC[C@@H](C(=O)N[C@H](C(N)=O)[C@@H](C)O)NC(=O)[C@H](C)NC1=O | fucoidan | binding, isothermal titration calorimetry |  | pH 7.0, 25 °C | 0.44 µM |
| N#CC(=Cc1cccc2[nH]ccc12)C(N)=O | 2-mercaptoethanol | thiol adduct formation, UV-visible titration | PBS | pH 7.4 | 6230 ± 1190 µM |
| Cc1cc(NC(=O)CCC(=O)O)nn1C | USP51 ZnF-UBD domain |  |  |  | > 1000 µM |
| C[C@H](O)C(=O)O | T156H-R445H zinc sensor protein | binding, fluorescence lifetime |  | no Zn2+ | 52 ± 10 µM |
| COc1cc2c(cc1O)[C@@H](Cc1ccc(O)cc1)[N+](C)(C)CC2 | GAP50 | binding, surface plasmon resonance |  | 1:1 binding model | 7.74 µM |
| [Ca+2].[Cl-].[Cl-] | Metacaspase-2 (MCA2, Trypanosoma brucei brucei, UniProt Q585F3) | binding, high-affinity site, intrinsic fluorescence |  | pH 7.4, 25 °C | 3 ± 0.3 µM |
| CCOc1nc2cccc(C(=O)O)c2n1Cc1ccc(-c2ccccc2-c2nnn[nH]2)cc1 | LCN2 (Homo sapiens, UniProt P80188, C107S) | NMR titration line-shape fit |  | induced fit model | 5.2 ± 0.1 µM |
| CN1CCC(NCc2cccc(-c3ccc(S(=O)(=O)NCc4ccccc4)cc3)c2)CC1 | GAP50 | binding, surface plasmon resonance |  | 1:1 binding model | 6.62 µM |
| Nc1ncnc2c1ncn2[C@H]1O[C@@H](CO)[C@H](O)[C@@H]1O | Heat shock cognate 71 kDa protein, nucleotide-binding domain (HSPA8, Homo sapiens, UniProt P11142) | binding, SPR |  | nucleotide-binding domain, residues 1-381 | > 1000 µM |
| Cc1ccccc1C(=O)N1N=C(Nc2ccccc2)SC1(C)C | GAP50 | binding, surface plasmon resonance |  | 1:1 binding model | 0.289 µM |
| C[C@H](N)C(=O)N[C@H](CCC(=O)O)C(N)=O | Nucleotide-binding oligomerization domain-containing protein 2, LRR domain (NOD2, Homo sapiens, UniProt Q9HC29) | binding, SPR, immobilised ligand |  | LRR domain wild type | 0.428 ± 0.049 µM |
| OC[C@H]1OC(O)[C@H](O)[C@@H](O)[C@@H]1O (stereo partly shown) | Hexokinase-3 (HK3, Homo sapiens, UniProt P52790) | binding, isothermal titration calorimetry |  | pH 8.0, 25 °C | 6.2 ± 0.6 µM |
| O=C(O)Cn1cc2ccccc2n1 | USP51 ZnF-UBD domain |  |  |  | > 1000 µM |

| SMILES | target | test | test system | setting | Kd |
| --- | --- | --- | --- | --- | --- |
| CCOC(=O)N1CCN(c2ccc(Cl)cc2)CC1 | GAP50 | binding, surface plasmon resonance |  | 1:1 binding model | 0.168 µM |
| CCN(CC)Cc1ccc2cc(COC(=O)Nc3ccc(C(=O)NO)cc3)ccc2c1 | HDAC10 | inhibitor, competition pulldown | SW620 and MV4-11 lysate | 1 h | 1.32 µM |
| CC(C)(COP(=O)(O)OP(=O)(O)OC[C@H]1O[C@@H](n2cnc3c(N)ncnc32)[C@H](O)[C@@H]1OP(=O)(O)O)[C@@H](O)C(=O)NCCC(=O)NCCS | Probable N-acetyltransferase 14 (NAT14, Homo sapiens, UniProt Q8WUY8) | competitor, competition MS pulldown | SW-620 cell lysate | added: photo-immobilized beads | 1.45 µM |
| COc1ccc(CN)cc1 | Maoa | steady-state isotope effects |  | pH 7.5 | 58 µM |
| Nc1ncnc2c1ncn2[C@@H]1O[C@H](COP(=O)(O)OP(=O)(O)OP(=O)(O)O)[C@@H](O)[C@H]1O | cmk (Bifidobacterium longum, UniProt A0ACD7UKP5) | binder, isothermal titration calorimetry |  | 25 °C | 2.2 µM |
| N=C(N)NCCCCC(=O)Nc1cc(C(F)(F)F)cc(NC(=O)c2cc(C(=O)Nc3cc(C(F)(F)F)cc(NC(=O)CCCCNC(=N)N)c3O[C@@H]3CCNC3)ncn2)c1O[C@@H]1CCNC1 | GAP50 | binding, surface plasmon resonance |  | 1:1 binding model | 2.8 µM |
| N[C@@H](CO)C(=O)O | SAR11_1346 protein (Candidatus Pelagibacter sp.) | binding, direct isothermal titration calorimetry |  |  | 0.199 ± 0.097 µM |
| O=C(O)/C=C/C=C/c1cccc(Oc2cc(Cl)cc(Cl)c2)c1 | GAP50 | binding, surface plasmon resonance |  | 1:1 binding model | 3.81 µM |
| CCN(CC)C1CCC(NC(=O)c2cc3[nH]ccc3cc2Cl)CC1 (stereo not shown) | Nuclear receptor subfamily 4 group A member 2 (Homo sapiens, UniProt P43354) | isothermal titration calorimetry |  | 25 °C | no binding |
| COc1cc(C=O)ccc1O | Aromatic O-demethylase, cytochrome P450 subunit (gcoA, Amycolatopsis sp., UniProt P0DPQ7) | binding, ferric spin-state titration | Amycolatopsis sp. ATCC 39116 | ferric enzyme without reductase | 60 ± 4 µM |
| COc1ccc(N2CCN(Cc3cn4c(-c5ccc(Br)cc5)nnc4s3)CC2)cc1 | His-SUMO-FSP1 | binding, SPR steady-state |  | 25 °C | 0.319 µM |
| O=C(O)CCc1ccccc1OCc1ccccn1 | USP51 ZnF-UBD domain |  |  |  | > 1000 µM |
| C[N+](C)(C)CC(=O)O | uncharacterized protein | binding, competition isothermal titration calorimetry | Candidatus Pelagibacter ubique | added: glycine 2.5 mM competitor | 0.00212 µM and 0.00181 µM |
| O=C(O)CNc1ccc2nncn2n1 | USP51 ZnF-UBD domain |  |  |  | > 1000 µM |
| NCc1ccc(F)cc1 | Maoa | steady-state isotope effects |  | pH 7.5 | 103 µM |
| O=C(O)Cc1cc(-c2ccc(C(=O)O)s2)sc1-c1ccc(-c2sc(-c3ccc(C(=O)O)s3)cc2CC(=O)O)s1 | Microtubule-associated protein tau, 0N4R isoform, aggregated (MAPT, Homo sapiens, UniProt P10636) | binding, fluorescence | 30% sucrose tau fraction |  | 5.26 µM |
| NCCN(C(=O)c1ccc(Cl)cc1Cl)c1ccc(OCc2ccc(Cl)cc2)cc1 | GAP50 | binding, surface plasmon resonance |  | 1:1 binding model | 26.2 µM |
| CC(=O)N[C@@H]1[C@@H](O)[C@H](O)[C@@H](CO)O[C@H]1O | NOD2 R877A LRR domain | surface plasmon resonance |  | LRR mutant R877A | 1.34 ± 0.093 µM |
| CC(C)C[C@H](NC(=O)[C@@H]1CCCN1C(=O)CNC(=O)c1ccc2c(c1)C(=O)OC21c2ccc(O)cc2Oc2cc(O)ccc21)C(=O)N[C@@H](C)C(=O)N[C@H](C(=O)N[C@@H](CO)C(=O)N[C@H](C(=O)N1CCC[C@H]1C(=O)N[C@@H](CCCCN)C(=O)N[C@@H](CC(N)=O)C(=O)NCC(=O)O)[C@@H](C)OP(=O)(O)O)[C@@H](C)O | Serine/threonine-protein kinase PLK3, polo-box domain (PLK3, Homo sapiens, UniProt Q9H4B4) |  |  |  | 0.167 ± 0.0173 µM |
| O=C(O)CCn1sc2ccccc2c1=O | USP51 ZnF-UBD domain |  |  |  | > 1000 µM |
| Nc1nc2c(ncn2[C@H]2C[C@H](OP(=O)(O)OP(=O)(O)O)[C@@H](COP(=O)(O)OP(=O)(O)O)O2)c(=O)[nH]1 | Amidophosphoribosyltransferase (purF, Escherichia coli, UniProt P0AG16) |  |  |  | 2.6 µM |
| Nc1nc(-c2ccc(Cl)c(S(N)(=O)=O)c2)cs1 | CA14 (Homo sapiens, UniProt Q9ULX7) | thermal shift |  | pH 7.0, 25 °C | 0.02 µM |
| O=C(O)CCc1ccno1 | USP51 ZnF-UBD domain |  |  |  | > 1000 µM |
| Cc1ccc(S(=O)(=O)Nc2ccc(CN3CCN(C(=O)c4cccc(C#N)c4)CC3)cc2)cc1 | GAP50 | binding, surface plasmon resonance |  | 1:1 binding model | 43.3 µM |
| CCCC(CCC)C(=O)O | HDAC10 | inhibitor, competition pulldown | SW620 and MV4-11 lysate | 1 h | > 3020 µM |
| Nc1nc2c(ncn2[C@@H]2O[C@H](COP(=O)(O)OP(=O)(O)O)[C@@H](O)[C@H]2O)c(=O)[nH]1 | GTP-binding protein gtr2, with Gtr1 (gtr2, Schizosaccharomyces pombe, UniProt O74544, F161W) | binding, UV crosslinking equilibrium titration |  | 4 °C, no 7.4 | 0.68 µM |

Excerpt of the above:
| SMILES | target | test | test system | setting | Kd |
| --- | --- | --- | --- | --- | --- |
| O=C(O)CCC1=Nc2cccc3cccc(c23)N1 | USP51 ZnF-UBD domain |  |  |  | > 1000 µM |
| Nc1nc2c(ncn2[C@@H]2O[C@H](COP(=O)(O)OP(=O)(O)O)[C@@H](O)[C@H]2O)c(=O)[nH]1 | GTP-binding protein gtr2, with Gtr1 (gtr2, Schizosaccharomyces pombe, UniProt O74544, F161W) | binding, UV crosslinking equilibrium titration |  | 4 °C, no 7.4 | 0.68 µM |
| O=C(O)/C=C/C=C/c1cccc(Oc2cc(Cl)cc(Cl)c2)c1 | GAP50 | binding, surface plasmon resonance |  | 1:1 binding model | 3.81 µM |
| CCN(CC)C1CCC(NC(=O)c2cc3[nH]ccc3cc2Cl)CC1 (stereo not shown) | Nuclear receptor subfamily 4 group A member 2 (Homo sapiens, UniProt P43354) | isothermal titration calorimetry |  | 25 °C | no binding |
